Literature values, collected from citations in different studies.
Compare with care: the assays were run in different laboratories. ± gives the spread as reported.

Structure (SMILES)	assay	test system	setting	scale	endpoint	value
CO[C@@H]1[C@H](O)[C@@H](COP(=O)([O-])OP(=O)(O)CP(=O)(O)OP(=O)(O)OC[C@H]2O[C@@H](n3cnc4c(=O)[nH]c(N)nc43)[C@H](O)[C@@H]2O)O[C@H]1n1c[n+](C)c2c(O)nc(N)nc21	cap-dependent translation, inhibitor	rabbit reticulocyte lysate	no preincubation	–	IC50	2.8 ± 0.2 µM
CNC(=O)c1ccc(N2C(=S)N(c3ccc(C#N)c(C(F)(F)F)c3)C(=O)C2(C)C)cc1F	–	human, metastatic castration-resistant prostate cancer	dose not given	–	activity	active
CC1=CCC23OC2(C)CCC2C(CN(C)C)C(=O)OC2C13.Cl (stereo not drawn)	–	Lewis lung carcinoma model	ip and intratumoural, dose not given	–	tumour growth inhibition	86 to 90%
Cc1ccc(C(C)C)cc1.O=C(N=P(c1ccccc1)(c1ccccc1)c1ccccc1)c1ccccn1.[Cl-].[Cl][Ru+]	–	mouse, MDA-MB-231 xenograft	5 mg/kg, 28 days, 14 doses every other day	–	tumour volume reduction	56%
CC(C)C[C@@H](NC(=O)[C@H](C)NC(=O)CNC(=O)[C@@H](NC=O)C(C)C)C(=O)N[C@@H](C)C(=O)N[C@@H](C(=O)N[C@H](C(=O)N[C@@H](C(=O)N[C@@H](Cc1c[nH]c2ccccc12)C(=O)N[C@H](CC(C)C)C(=O)N[C@@H](Cc1c[nH]c2ccccc12)C(=O)N[C@H](CC(C)C)C(=O)N[C@@H](Cc1c[nH]c2ccccc12)C(=O)N[C@H](CC(C)C)C(=O)N[C@@H](Cc1c[nH]c2ccccc12)C(=O)NCCO)[C@H](C)O)C(C)C)C(C)C	H+/Na+ exchange	EYPC/EYPG liposomes	–	–	EC50	0.0016 µM
C=C(C[C@H](N)C(=O)O)C(=O)O	–	newborn rat spinal cord	–	reference: L-glutamate	relative depolarizing potency	10
NC(=O)C1(NC(=O)[C@H](Cc2ccccc2)NC(=O)[C@@H](Cc2c[nH]c3ccccc23)NC(=O)[C@@H](Cc2csc3ccccc23)NC(=O)C2CCNCC2)CCNCC1	–	normal primates	dose not given	–	gastric emptying rate	increased
CO[C@@H]1[C@H](O)[C@@H](COP(=O)(O)OP(=O)([O-])OP(=O)(O)OP(=O)(O)OC[C@H]2O[C@@H](n3cnc4c(=O)[nH]c(N)nc43)[C@H](O)[C@@H]2O)O[C@H]1n1c[n+](C)c2c(O)nc(N)nc21	cap-dependent translation, inhibitor	rabbit reticulocyte lysate	preincubated 60 min in lysate	–	IC50	4.2 ± 0.1 µM
C=CC(OC1OC(C(=O)O)C(O)C(O)C1O)c1ccc(OC)cc1 (stereo not drawn)	–	male rat, liver	glucuronidation	–	scaled Vmax	60 µmol/h/g liver
Cc1sc(-c2ccc(C(F)(F)F)cc2)nc1-c1nn[nH]c1C#N	–	ZDF rat	dose not given	–	fasting blood glucose	decreased
CCOC(=O)Cc1nc2c(C#N)cnn2c2c1C(C(=O)OCC)C(C(=O)OCC)=C(NC1CCCCC1)O2 (stereo not drawn)	free radical scavenging	–	–	–	IC50	12.1 ± 0.4 µM
CC(=O)N[C@H](CSSC[C@H](N)C(=O)O)C(=O)N[C@H](C)C(=O)N[C@H](CCCNC(=N)N)C(=O)N[C@H](CCCNC(=N)N)C(=O)N[C@H](CCCNC(=N)N)C(=O)N[C@H](C)C(=O)N[C@H](CCCNC(=N)N)C(N)=O	–	5/6 nephrectomized rat	dose not given	–	plasma PTH level	decreased
C[C@@H]1O[C@@H](O[C@@H]2CO[C@@H](Oc3c(O)cc(-c4oc5cc(O)cc(O)c5c(=O)c4O[C@@H]4O[C@@H](C)[C@H](O)[C@@H](O)[C@H]4O[C@@H]4O[C@H](COC(=O)/C=C/c5ccc(O)c(O)c5)[C@@H](O)[C@H](O)[C@H]4O[C@@H]4O[C@H](CO)[C@@H](O)[C@H](O)[C@H]4O)cc3O)[C@H](O)[C@H]2O)[C@H](O)[C@H](O)[C@H]1O	antihyperglycaemic	Zucker diabetic fatty rat, plasma	dose not given	–	blood glucose	decreased
O=C([O-])CN1CCN(CC(=O)[O-])CCN(Cc2cccc(C(=O)[O-])n2)CCN(CC(=O)[O-])CC1.[Eu+3]	–	1 M HCl	298 K, complex dissociation	–	dissociation rate constant	0.002 s⁻¹
C=CC(O)c1ccc(OC)cc1 (stereo not drawn)	–	male rat, lung microsomes	–	–	catalytic efficiency	18 mL/h/g liver
CC1=C(C2=C(C)C(=O)c3c(cc(O)c(O)c3Cc3ccccc3)C2=O)C(=O)c2cc(O)c(O)c(Cc3ccccc3)c2C1=O (racemic)	–	B6 Bcl-2-transgenic mouse	30 µmol/kg	–	spleen size reduction	43 ± 4%
C[n+]1cn([C@@H]2O[C@H](COP(=O)([O-])OP(=O)(O)CP(=O)(O)OP(=O)(O)OC[C@H]3O[C@@H](n4cnc5c(=O)[nH]c(N)nc54)[C@H](O)[C@@H]3O)[C@@H](O)[C@H]2O)c2nc(N)nc(O)c21	cap-dependent translation, inhibitor	rabbit reticulocyte lysate	preincubated 60 min in lysate	–	IC50	3.8 ± 0.2 µM
C=CC(OS(=O)(=O)O)c1ccc(OC)cc1 (stereo not drawn)	–	human, liver	sulfonation	–	catalytic efficiency	0.1 mL/h/g liver
C[n+]1cn([C@@H]2O[C@H](COP(=O)(O)OP(=O)([O-])OP(=O)(O)OP(=O)(O)OC[C@H]3O[C@@H](n4cnc5c(=O)[nH]c(N)nc54)[C@H](O)[C@@H]3O)[C@@H](O)[C@H]2O)c2nc(N)nc(O)c21	cap-dependent translation, inhibitor	rabbit reticulocyte lysate	no preincubation	–	IC50	5 ± 0.5 µM
C=CCC(=N)NCCC[C@H](N)C(=O)O	–	hippocampal slices	0.1 µM	–	long-term potentiation	decreased
CC(C)(O)c1ncc([S@](N)(=O)=NC(=O)Nc2c3c(cc4c2CCC4)CCC3)s1	IL-1β release	human whole blood	plasma concentration, together with: LPS	–	IC50	0.33 µM
CC#N.Cc1ccc(O)c(CN(CCN(Cc2ccccn2)Cc2ccccn2)Cc2ccccn2)c1.[Mn+2]	–	–	concentration not given, pH 7.4, water exchange	–	activation enthalpy	6.36 kcal/mol
CN1CCN(C(=O)N(CCCCCCC(=O)NO)c2ccc(-c3ccc4cnn(C)c4c3)cc2)CC1	–	lymphoma and myeloma patients	dose not given, phase I	–	stable disease or better	44.4%
CCC=CCC=CCC=CCC=CCC=CCC=CCCC(=O)OCC(O)COP(=O)([O-])OCC[N+](C)(C)C (stereo not drawn)	item: docosahexaenoic acid	normal adult mice	dietary, dose not given	reference: untreated	brain DHA level increase	> 2 fold

For quick reference, copied from above:
Structure (SMILES)	assay	test system	setting	scale	endpoint	value
CNC(=O)c1ccc(N2C(=S)N(c3ccc(C#N)c(C(F)(F)F)c3)C(=O)C2(C)C)cc1F	–	human, metastatic castration-resistant prostate cancer	dose not given	–	activity	active
C=CCC(=N)NCCC[C@H](N)C(=O)O	–	hippocampal slices	0.1 µM	–	long-term potentiation	decreased
C=C(C[C@H](N)C(=O)O)C(=O)O	–	newborn rat spinal cord	–	reference: L-glutamate	relative depolarizing potency	10
